Measured values of several laboratories.
Lines come from different studies, so protocols differ.
Method: steady-state kinetics
B1: YME1 (Saccharomyces cerevisiae, UniProt P32795); chain ADKSVDVAKTNVKFDDVCGCDEARAELEEIVDFLKDPTKYESLGGKLPKGVLLTGPPGTGKTLLARATAGEAGVDFFFMSGSEFDEVYVGVGAKRIRDLFAQARSRAPAIIFIDELDAIGGKRNPKDQAYAKQTLNQLLVELDGFSQTSGIIIIGATNFPEALDKALTRPGRFDKVVNVDLPDVRGRADILKHHMKKITLADNVDPTIIARGTPGLSGAELANLVNQAAVYACQKNAVSVDMSHFEWAKDKILMGAERKTMVLTDAARKATAFHEAGHAIMAKYTNGATPLYKATILPRGRALGITFQLPEMDKVDITKRECQARLDVCMGGKIAEELIYGKDNTTSGCGSDLQSATGTARAMVTQYGMSDDVGPVNLSENWESWSNKIRDIADNEVIELLKDSEERARRLLTKKNVELHRLAQGLIEYETLDAHEIEQVCKGEKLDKLKTSTNTVVEGPDSDERKDIGDDKPKIPTMLNA
B2: carbamoyl phosphate synthetase large subunit A23F (Escherichia coli, UniProt P00968); chain PKRTDIKSILILGAGPIVIGQFCEFDYSGAQACKALREEGYRVILVNSNPATIMTDPEMADATYIEPIHWEVVRKIIEKERPDAVLPTMGGQTALNCALELERQGVLEEFGVTMIGATADAIDKAEDRRRFDVAMKKIGLETARSGIAHTMEEALAVAADVGFPCIIRPSFTMGGSGGGIAYNREEFEEICARGLDLSPTKELLIDESLIGWKEYEMEVVRDKNDNCIIVCSIENFDAMGIHTGDSITVAPAQTLTDKEYQIMRNASMAVLREIGVETGGSNVQFAVNPKNGRLIVIEMNPRVSRSSALASKATGFPIAKVAAKLAVGYTLDELMNDITGGRTPASFEPSIDYVVTKIPRFNFEKFAGANDRLTTQMKSVGEVMAIGRTQQESLQKALRGLEVGATGFDPKVSLDDPEALTKIRRELKDAGADRIWYIADAFRAGLSVDGVFNLTNIDRWFLVQIEELVRLEEKVAEVGITGLNADFLRQLKRKGFADARLAKLAGVREAEIRKLRDQYDLHPVYKRVDTCAAEFATDTAYMYSTYEEECEANPSTDREKIMVLGGGPNRIGQGIEFDYCCVHASLALREDGYETIMVNCNPETVSTDYDTSDRLYFEPVTLEDVLEIVRIEKPKGVIVQYGGQTPLKLARALEAAGVPVIGTSPDAIDRAEDRERFQHAVERLKLKQPANATVTAIEMAVEKAKEIGYPLVVRPSYVLGGRAMEIVYDEADLRRYFQTAVSVSNDAPVLLDHFLDDAVEVDVDAICDGEMVLIGGIMEHIEQAGVHSGDSACSLPAYTLSQEIQDVMRQQVQKLAFELQVRGLMNVQFAVKNNEVYLIEVNPRAARTVPFVSKATGVPLAKVAARVMAGKSLAEQGVTKEVIPPYYSVKEVVLPFNKFPGVDPLLGPEMRSTGEVMGVGRTFAEAFAKAQLGSNSTMKKHGRALLSVREGDKERVVDLAAKLLKQGFELDATHGTAIVLGEAGINPRLVNKVHEGRPHIQDRIKNGEYTYIINTTSGRRAIEDSRVIRRSALQYKVHYDTTLNGGFATAMALNADATEKVISVQEMHAQIK
B3: enzyme A178R/D177A/M179S/P184R (Levilactobacillus brevis, UniProt Q03Q85); chain MKVTVVGCTHAGTFAIKQILAEHPDAEVTVYERNDVISFLSCGIALYLGGKVADPQGLFYSSPEELQKLGANVQMNHNVLAIDPDQKTVTVEDLTNHAQTTESYDKLVMTSGSWPIVPKIPGIDSDRVKLCKNWAHAQALIEDAKEAKRITVIGAGYIGAELAEAYSTTGHDVTLIARSARVMRKYFDADFTDVIEQDYRDHGVQLALGETVESFTDSATGLTIKTDKNSYETDLAILCIGFRPNTDLLKGKVDMAPNGAIITDDYMRSSNPDIFAAGDSAAVHYNPTHQNAYIPLATNAVRQGILVGKNLVKPTVKYMGTQSSSGLALYDRTIVSTGLTLAAAKQQGLNAEQVIVEDNYRPEFMPSTEPVLMSLVFDPDTHRILGGALMSKYDVSQSANTLSVCIQNENTIDDLAMVDMLFQPNFDRPFNYLNILAQAAQAKVAQSVNA
B4: enzyme R108A (Sinorhizobium meliloti, UniProt Q92UV7); chain MTNAEVTIAVRHEPMRIAGRLVDTDDRVEVRYPWNDTVVGTVPAGRAEHAREAFAIAAAYQPKLTRYERQKILLATAEALAARKEEISDVITLELGISKADSLYEVGAAFDVFTLAGQMCIRDDGEIFSCDLTPHGKARKIFTMREPLTAISAITPFNHPLNMVAHKVAPAIATNNCVVVKPTELTPMTALLLADILYEAGLPPEMLSVVTGWPADIGMEMITNPHVDLVTFTGSVPVGKLIAANAHYKRQVLELGGNDPLIILNDLSDDDLARAADLAVAGATKNSGQRCTAVKRILCQESVADRFVPLVLERAKRLRFGDPMDRSTDLGTVIHEKAAALFEERVMRAAEEGADILYHPGRSGALLPPIVVDRVPHQSDLVLEETFGPIIPIVRVPDDDDATITLSNSTAFGLSSGVCTNDYRRMQKYIAGLKVGTVNIWEVPGYRIEMSPFGGIKDSGNGYKEGVIEAMKSFTNVKTFSLPWP
B5: KS T527V (Arabidopsis thaliana, UniProt Q9SAK2); chain ANNVSFEQTKEKIRKMLEKVELSVSAYDTSWVAMVPSPSSQNAPLFPQCVKWLLDNQHEDGSWGLDNHDHQSLKKDVLSSTLASILALKKWGIGERQINKGLQFIELNSALVTDETIQKPTGFDIIFPGMIKYARDLNLTIPLGSEVVDDMIRKRDLDLKCDSEKFSKGREAYLAYVLEGTRNLKDWDLIVKYQRKNGSLFDSPATTAAAFTQFGNDGCLRYLCSLLQKFEAAVPSVYPFDQYARLSIIVTLESLGIDRDFKTEIKSILDETYRYWLRGDEEICLDLATCALAFRLLLAHGYDVSYDPLKPFAEESGFSDTLEGYVKNTFSVLELFKAAQSYPHESALKKQCCWTKQYLEMELSSWVKTSVRDKYLKKEVEDALAFPSYASLERSDHRRKILNGSAVENTRVTKTSYRLHNICTSDILKLAVDDFNFCQSIHREEMERLDRWIVENRLQELKFARQKLAYCYFSGAATLFSPELSDARISWAKGGVLVTVVDDFFDVGGSKEELENLIHLVEKWDLNGVPEYSSEHVEIIFSVLRDTILETGDKAFTYQGRNVTHHIVKIWLDLLKSMLREAEWSSDKSTPSLEDYMENAYISFALGPIVLPATYLIGPPLPEKTVDSHQYNQLYKLVSTMGRLLNDIQGFKRESAEGKLNAVSLHMKHERDNRSKEVIIESMKGLAERKREELHKLVLEEKGSVVPRECKEAFLKMSKVLNLFYRKDDGFTSNDLMSLVKSVIYEPVSLQEESLT
B6: MCAT R178A (Homo sapiens, UniProt Q8IVS2); chain GQGSQVVGMGRGLLNYPRVRELYAAARRVLGYDLLELSLHGPQETLDRTVHCQPAIFVASLAAVEKLHHLQPSVIENCVAAAGFSVGEFAALVFAGAMEFAEGLYAVKIAAEAMQEASEAVPSGMLSVLGQPQSKFNFACLEAREHCKSLGIENPVCEVSNYLFPDCRVISGHQEALRFLQKNSSKFHFRRTRMLPVSGAFHTRLMEPAVEPLTQALKAVDIKKPLVSVYSNVHAHRYRHPGHIHKLLAQQLVSPVKWEQTMHAIYERKKGRGFPQTFEVGPGRQLGAILKSCNMQAWKSYSAVDVL
B7: pol D141A/E143A/G245D (Thermococcus kodakarensis, UniProt P77933); chain 1 MILDTDYITEDGKPVIRIFKKENGEFKIEYDRTFEPYFYALLKDDSAIEEVKKITAERHGTVVTVKRVEKVQKKFLGRPVEVWKLYFTHPQDVPAIRDKIREHPAVIDIYEYDIPFAKRYLIDKGLVPMEGDEELKMLAFAIATLYHEGEEFAEGPILMISYADEEGARVITWKNVDLPYVDVVSTEREMIKRFLRVVKEKDPDVLITYNGDNFDFAYLKKRCEKLGINFALGRDGSEPKIQRMDDRFAVEVKGRIHFDLYPVIRRTINLPTYTLEAVYEAVFGQPKEKVYAEEITTAWETGENLERVARYSMEDAKVTYELGKEFLPMEAQLSRLIGQSLWDVSRSSTGNLVEWFLLRKAYERNELAPNKPDEKELARRRQSYEGGYVKEPERGLWENIVYLDFR; chain 2 SLYPSIIITHNVSPDTLNREGCKEYDVAPQVGHRFCKDFPGFIPSLLGDLLEERQKIKKKMKATIDPIERKLLDYRQRAIKILAN; chain 3 NSYYGYYGYARARWYCKECAESVTAWGREYITMTIKEIEEKYGFKVIYSDTDGFFATIPGADAETVKKKAMEFLKYINAKLPGALELEYEGFYKRGFFVTKKKYAVIDEEGKITTRGLEIVRRDWSEIAKETQARVLEALLKDGDVEKAVRIVKEVTEKLSKYEVPPEKLVIHEQITRDLKDYKATGPHVAVAKRLAARGVKIRPGTVISYIVLKGSGRIGDRAIPFDEFDPTKHKYDAEYYIENQVLPAVERILRAFGYRKEDLRYQKTRQVGLSAWLKPKGT
B8: tsaM1 F253S/H255G/M230N/R216A/S234V/S257H/T232I/Y220I (Comamonas testosteroni, UniProt P94679); chain MFIRNCWYVAAWDTEIPAEGLFHRTLLNEPVLLYRDTQGRVVALENRCCHRSAPLHIGRQEGDCVRCLYHGLKFNPSGACVEIPGQEQIPPKTCIKSYPVVERNRLVWIWMGDPARANPDDIVDYFWHDSPEWRMKPGYIHYQANYKLIVDNLLDFTHLAWVHPTTLGTDSAASLKPVIERDTTGTGKLTITRWYLNDDMSNLHKGVAKFEGKADAWQIIQWSPPALLRNDIGVAPTGTGAPEGRRVPEAVQSRGTHIQTPETETTSHYWFCQARNFDLDDEALTEKIYQGVVVAFEEDRTMIEAHEKILSQVPDRPMVPIAADAGLNQGRWLLDRLLKAENGGTAP
B9: LYS1 C205S/K99M (Saccharomyces cerevisiae, UniProt P38998); chain MAAVTLHLRAETKPLEARAALTPTTVKKLIAKGFKIYVEDSPQSTFNINEYRQAGAIIVPAGSWKTAPRDRIIIGLKEMPETDTFPLVHEHIQFAHCYMDQAGWQNVLMRFIKGHGTLYDLEFLENDQGRRVAAFGFYAGFAGAALGVRDWAFKQTHSDDEDLPAVSPYPNEKALVKDVTKDYKEALATGARKPTVLIIGALGRSGSGAIDLLHKVGIPDANILKWDIKETSRGGPFDEIPQADIFINCIYLSKPIAPFTNMEKLNNPNRRLRTVVDVSADTTNPHNPIPIYTVATVFNKPTVLVPTTAGPKLSVISIDHLPSLLPREASEFFSHDLLPSLELLPQRKTAPVWVRAKKLFDRHCARVKRSSRL
UniProt P19337, sequence (whole entry, looked up): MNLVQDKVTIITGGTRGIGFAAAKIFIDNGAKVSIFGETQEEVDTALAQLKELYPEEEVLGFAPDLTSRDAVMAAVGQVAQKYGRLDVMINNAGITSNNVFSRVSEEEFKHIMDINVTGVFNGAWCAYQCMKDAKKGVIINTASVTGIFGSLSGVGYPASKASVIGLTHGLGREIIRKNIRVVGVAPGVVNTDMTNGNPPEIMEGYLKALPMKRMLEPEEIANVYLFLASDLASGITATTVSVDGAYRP

Substance | substrate | conditions | Km [µM]
B1 (YME1) | Nc1ncnc2c1ncn2[C@@H]1O[C@H](COP(=O)(O)OP(=O)(O)OP(=O)(O)O)[C@@H](O)[C@H]1O | pH 8, 30 °C | 116
B2 | Nc1ncnc2c1ncn2[C@@H]1O[C@H](COP(=O)(O)OP(=O)(O)OP(=O)(O)O)[C@@H](O)[C@H]1O | pH 7.6, KCl 100 mM, together with: glutamine 10 mM, ornithine 10 mM | 1600
B3 (enzyme A178R/D177A/M179S/P184R) | NC(=O)C1=CN([C@@H]2O[C@H](COP(=O)(O)OP(=O)(O)OC[C@H]3O[C@@H](n4cnc5c(N)ncnc54)[C@H](OP(=O)(O)O)[C@@H]3O)[C@@H](O)[C@H]2O)C=CC1 | pH 7.5, 37 °C | 2.8
B4 (enzyme R108A) | NC(=O)c1ccc[n+]([C@@H]2O[C@H](COP(=O)(O)OP(=O)(O)OC[C@H]3O[C@@H](n4cnc5c(N)ncnc54)[C@H](O)[C@@H]3O)[C@@H](O)[C@H]2O)c1 | pH 7.5, 30 °C, cofactor varied | 18
B5 (KS T527V) | C=C1CC[C@@H]2C(C)(C)CCC[C@@]2(C)[C@@H]1CC/C(C)=C/COP(=O)(O)OP(=O)(O)O | pH 7.2, 30 °C, GGPP-derived substrate | 9
B6 (MCAT R178A) | CC(=O)SCCNC(=O)CCNC(=O)[C@H](O)C(C)(C)COP(=O)(O)OP(=O)(O)OC[C@H]1O[C@@H](n2cnc3c(N)ncnc32)[C@H](O)[C@@H]1OP(=O)(O)O | pH 6.8, 20 °C, labelled substrate, together with: holo-ACP 20 µM | 32.9
PTR1 (Leishmania major, UniProt Q01782) | C[C@H](O)[C@H](O)C1=Nc2c(nc(N)[nH]c2=O)NC1 | pH 7.4, 25 °C, apparent | 3.32
CoA persulfide reductase CDR-RHD (Enterococcus faecalis, UniProt A0ACD6TF65) | N[C@@H](CSS)C(=O)O | pH 8, 25 °C, Km not accurate, together with: FAD 100 nM, NADH 100 µM | 270
B7 (pol D141A/E143A/G245D) | Nc1nc2c(ncn2[C@H]2C[C@H](O)[C@@H](COP(=O)(O)OP(=O)(O)OP(=O)(O)O)O2)c(=O)[nH]1 | pH 8, 55 °C | 9.2
BaiA2 (Clostridium scindens, UniProt P19337) | C[C@H](CCC(=O)SCCNC(=O)CCNC(=O)[C@H](O)C(C)(C)COP(=O)(O)OP(=O)(O)OC[C@H]1O[C@@H](n2cnc3c(N)ncnc32)[C@H](O)[C@@H]1OP(=O)(O)O)[C@H]1CC[C@H]2[C@@H]3[C@H](O)C[C@@H]4CC(=O)CC[C@]4(C)[C@H]3C[C@H](O)[C@]12C | pH 8.7, 37 °C, together with: NADH | 1.8
B8 | COc1cc(C(=O)O)ccc1O | apparent, together with: NADH 1 mM | 20
B9 (LYS1 C205S/K99M) | O=C(O)CCC(=O)C(=O)O | pH 7.2, 25 °C, together with: NADH and Lys | 8800

Repeated from above:
Substance | substrate | conditions | Km [µM]
CoA persulfide reductase CDR-RHD (Enterococcus faecalis, UniProt A0ACD6TF65) | N[C@@H](CSS)C(=O)O | pH 8, 25 °C, Km not accurate, together with: FAD 100 nM, NADH 100 µM | 270
B6 (MCAT R178A) | CC(=O)SCCNC(=O)CCNC(=O)[C@H](O)C(C)(C)COP(=O)(O)OP(=O)(O)OC[C@H]1O[C@@H](n2cnc3c(N)ncnc32)[C@H](O)[C@@H]1OP(=O)(O)O | pH 6.8, 20 °C, labelled substrate, together with: holo-ACP 20 µM | 32.9
